Experimental data collected from several papers.
Lines come from different studies, so protocols differ.

SMILES | assay | system | setting | quantity | result
COc1cc(Nc2ncc3c(n2)-c2ccc(Cl)cc2C(c2c(F)cccc2OC)=NC3)ccc1C(=O)O | refers to: Dysgeusia, grade 2 | cancer patients, phase 1/2 | oral, dose not given, with: pembrolizumab | patients with adverse event | 4%
Cc1cc(-c2nnc(N)nc2-c2ccc(F)cc2)cc(Cl)n1 | refers to: Nausea | other solid tumours, post-IO | oral, 100 mg once daily, all grades | patients with treatment-related AE | 57.1%
CCOc1c([C@H](C)n2nc(C)c3c(N)ncnc32)cc(Cl)c(F)c1[C@@H]1CNC(=O)C1 | refers to: QTcF above 500 ms | previously treated B-cell malignancy | oral, 20 mg once daily, baseline QTcF ≤450 ms | patients | 0%
Cc1cc(NC2CCN(C(=O)OC3CCN(C(=O)/C=C/CN(C)C)C3)CC2)n2ncc(C(C)C)c2n1 (stereo not drawn) | – | patients with advanced solid tumours | dose not given, QD arm, any grade | patients with Vomiting | 23%
C[C@@H](Nc1cc(F)cc(F)c1)c1cc(C(=O)N(C)C)cc2c(=O)cc(N3CCOCC3)oc12 | refers to: Paresthesia | advanced solid tumour patients | oral, dose not given, dose expansion | patients discontinuing for AE | 0%
O=C(Nc1nc2cccc(-c3ccc(CN4CCS(=O)(=O)CC4)cc3)n2n1)C1CC1 | – | rheumatoid arthritis patients | oral, 100 mg twice daily, 4 weeks, TEAE regardless of relatedness | patients with Anemia | 0%
CNC(=O)c1ccc(-c2cnc3ncc(Cc4ccc5ncccc5c4)n3n2)cc1F | refers to: Cough | cancer patients | oral, 600 mg twice daily, all expansion cohorts, grade 3-4 | patients with adverse event | 0%
CNC(=O)c1cc(Oc2ccc(NC(=O)Nc3cc(C(C)(C)C)nn3-c3ccc4ncccc4c3)c(F)c2)ccn1 | – | patients | oral, dose not given, cycles 1 and 2, High Cmax subgroup | patients with visual abnormalities | 28%
FC(F)(F)c1ccc(CNc2ccc(Cc3c[nH]c4ncc(Cl)cc34)cn2)cn1 | refers to: alanine aminotransferase increased | patients with TGCT | oral, 1000 mg/day, all grades | patients with treatment-related adverse event | 18%

Excerpt of the above:
SMILES | assay | system | setting | quantity | result
COc1cc(Nc2ncc3c(n2)-c2ccc(Cl)cc2C(c2c(F)cccc2OC)=NC3)ccc1C(=O)O | refers to: Dysgeusia, grade 2 | cancer patients, phase 1/2 | oral, dose not given, with: pembrolizumab | patients with adverse event | 4%
